Published values gathered from unrelated publications.
Each line is one published result; not all experiments were run side by side. ± marks the error that the study gave.
Target: Cytochrome P450 2D6 (CYP2D6, Homo sapiens, UniProt P10635)

SMILES	test	test system	conditions	endpoint	value
CCN(CC)CCOc1ccc(-c2nnn(Cc3ccc(OC)cc3)c2N)cc1	enzyme activity, inhibitor		concentration not given	inhibition	no inhibition
Nc1nc(Nc2ccc(Cl)cc2)nn1S(=O)(=O)c1ccc2ccccc2c1			20 (unit not given), pH 7.4	IC50	> 50 µM
CNC(=O)Oc1cc(C)c([S+](C)[O-])c(C)c1 (stereo not drawn)	inhibitor	human liver microsomes	2 µM, pH 7.4, together with: dextromethorphan	inhibition	< 0%
C=CC(=O)Nc1cc(Nc2nccc(-c3cn(C)c4ccccc34)n2)c(OCC(F)(F)F)nc1N(C)CCN(C)C	dextromethorphan O-demethylation, inhibitor	human liver microsomes	10 µM	remaining activity	112%
CCCS(=O)(=O)c1ccc2[nH]c(NC(=O)OC)nc2c1	inhibitor	human liver microsomes	2 µM, pH 7.4, together with: dextromethorphan	inhibition	< 0%
Cc1cn2c(C(=O)NCc3ccc(C(F)(F)F)cc3)c(C)nc2s1	inhibitor			IC50	> 20 µM
COc1ccc2c(c1)[C@]13CCCC[C@@H]1[C@H](C2)N(C)CC3		human, plasma	oral, dose not given, day 12, together with: fluoxetine	AUC	1.85 ± 0.8 µM·h
Cc1ccc2nc(C)c(C(=O)NCc3ccc(C(F)(F)F)cc3)n2c1	inhibitor			IC50	> 20 µM
CC[C@@H]1CN2CCc3c([nH]c4cccc(OC)c34)[C@@H]2C[C@@H]1/C(=C\OC)C(=O)OC	recombinant enzyme metabolism		2 µM, 60 min	remaining compound	82%

For quick reference, copied from above:
SMILES	test	test system	conditions	endpoint	value
C=CC(=O)Nc1cc(Nc2nccc(-c3cn(C)c4ccccc34)n2)c(OCC(F)(F)F)nc1N(C)CCN(C)C	dextromethorphan O-demethylation, inhibitor	human liver microsomes	10 µM	remaining activity	112%
